# Measured values gathered from unrelated publications.
# Each numbered part is a random draw from the data of one study; scales do not carry over between parts.

# Block 1
# Target: Ras GTPase-activating protein-binding protein 1, RRM domain (G3BP1, Homo sapiens, UniProt Q13283)
# Chain of UniProt Q13283 (whole entry, looked up): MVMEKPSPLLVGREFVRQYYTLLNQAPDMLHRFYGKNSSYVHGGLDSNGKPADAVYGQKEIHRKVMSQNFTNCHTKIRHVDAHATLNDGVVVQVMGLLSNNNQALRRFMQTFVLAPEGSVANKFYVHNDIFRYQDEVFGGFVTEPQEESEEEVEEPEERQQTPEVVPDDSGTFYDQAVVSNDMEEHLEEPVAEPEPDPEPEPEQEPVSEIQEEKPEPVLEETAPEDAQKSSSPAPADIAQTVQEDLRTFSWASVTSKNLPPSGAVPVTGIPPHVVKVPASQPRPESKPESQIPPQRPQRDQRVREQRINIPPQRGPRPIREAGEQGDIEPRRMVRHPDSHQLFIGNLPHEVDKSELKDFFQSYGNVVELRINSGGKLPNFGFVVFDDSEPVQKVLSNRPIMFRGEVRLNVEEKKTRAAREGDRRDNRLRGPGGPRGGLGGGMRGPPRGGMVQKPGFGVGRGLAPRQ
# Method: RNA Bind-n-Seq
# Molecule type: RNA
# Sample: in vitro
# Tested at: 1 µM
# Notes: whole 134-nt RNA, ends assumed
# With: 150 mM KCl
# Baseline: input library
# Direction: higher = stronger binding
# All sequences stand within: GGGAGUUCUACAGUCCGACGAUC … UGGAAUUCUCGGGUGUCAAGG
Oligonucleotide,log2 enrichment
CCUGUGCUACACAUCGUAUGUACCGAAUCGGGGAAAAAAAGGGGAAAAAAAGGGGUGGGGAAAGUAUUAUGUUACGCCGUUCGGAUCUGC,0.591
UGGCCCUGGUGGCAUGCGGGGAGGAAGAGGUGGCCUCAUGGAUCGUGGUGGUCCCGGUGGAAUGUUCAGAGGUGGCCGUGGUGGAGACAC,1.44
AAGUCCUGUGCUACACAUCGUAUGUACCGAAUCAAAUUUAAAUUUAAACCCCCAAAAAAGUAUUAUGUUACGCCGUUCGGAUCUGCACUU,-0.52
GUCCUGUGCUACACAUCGUAUGUACCGAAUCGGGGAGGGGAAAGGGGUUUUUUUGGGGAAAGUAUUAUGUUACGCCGUUCGGAUCUGCAC,1.19
UUCCCGGAGAACUCGAGUAAAUCUAGAAGUUGCCAGGUUUCAGAACUAUUUAUUCCUUUAAUGUGCAGACGAAGGGAACGUCAUCGUUUG,0.00891

# Block 2
# Target: Interferon regulatory factor 7, full length, phosphomimetic (IRF7, Homo sapiens, UniProt Q92985, residues 1-503, S471D/S472D/S475D/S476D/S477D/S483D/S484D/S487D)
# Method: protein-binding microarray
# Molecule type: double-stranded DNA, one strand shown
# Sample: in vitro
# Tested at: 2200 nM top
# Notes: 60-bp whole probe
# With: salmon DNA 0.4 mg/ml
# Baseline: random background probes
# Direction: higher = stronger binding
# All sequences stand within: GCCTAGCAC … GTCTTGATTCGCTTGACGCTGCTG
# Target sequence (chain): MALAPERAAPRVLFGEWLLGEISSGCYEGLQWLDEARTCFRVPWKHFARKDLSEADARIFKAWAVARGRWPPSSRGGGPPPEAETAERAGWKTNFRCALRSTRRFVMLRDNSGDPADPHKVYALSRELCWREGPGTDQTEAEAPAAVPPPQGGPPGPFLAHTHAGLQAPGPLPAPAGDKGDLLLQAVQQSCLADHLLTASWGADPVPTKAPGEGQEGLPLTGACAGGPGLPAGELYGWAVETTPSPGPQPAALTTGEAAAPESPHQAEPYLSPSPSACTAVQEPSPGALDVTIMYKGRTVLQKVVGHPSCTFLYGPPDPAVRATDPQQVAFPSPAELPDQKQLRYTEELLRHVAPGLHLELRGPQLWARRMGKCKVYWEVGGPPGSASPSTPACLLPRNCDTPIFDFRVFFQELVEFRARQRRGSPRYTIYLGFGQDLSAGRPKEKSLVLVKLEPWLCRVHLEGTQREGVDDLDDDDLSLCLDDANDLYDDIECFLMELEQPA
Oligonucleotide,fitted relative affinity
GAGTTTCCATTTTCTGAATGCGTGCTA,6.3 z-score
GTAGGACTGGGTATCGGTTAGTGCTAG,-0.495 z-score
GAGGGTTTCGGACTGGGGACGTGCTAG,1.65 z-score
GACGGTATCGGTAACGGGACGTGCTAG,-0.142 z-score
TCATAAATGATATATATCACTGTGCTA,0.00887 z-score

# Block 3
# Target: Histone acetyltransferase KAT6A, winged helix 2, GST fusion (KAT6A, Homo sapiens, UniProt Q92794, residues 85-181)
# Method: protein binding microarray
# Molecule type: double-stranded DNA, one strand shown
# Sample: in vitro
# Tested at: not given
# Notes: 8-mer, flanks averaged, mean of 2 arrays, mostly near background
# Baseline: not given
# Direction: higher = stronger binding
# Target sequence (chain): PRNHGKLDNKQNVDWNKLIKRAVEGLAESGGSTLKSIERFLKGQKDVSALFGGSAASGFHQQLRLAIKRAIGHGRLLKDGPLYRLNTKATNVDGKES
Oligonucleotide,E-score
CCACCCTC,0.14
ATTTGTTA,-0.0341
AACGATTG,0.058
ATAGGCTA,-0.161
CTAAGCGC,0.0469
CTTGATCA,0.0286
GCCGAGCC,0.178
CAGAGGAA,0.124
GATAAACC,0.182

# Other studies, line by line
Substance,target,assay,system,conditions,how to read,quantity,value
"PhoQ, residues 284 288 289 292 302 303 SMMNNA","PhoP, residues 12 14 15 18 19 LHHSG (Escherichia coli, UniProt P23836)","Sort-seq, item: YFP reporter",E. coli,"PhoQ-PhoP variant library, with: 10 µM Mg2+","baseline: high Mg2+ state, higher = stronger signaling",fold induction,2.37

# Some of these lines once more (block 3):
Oligonucleotide,E-score
CAGAGGAA,0.124
